Measured values of several laboratories.
KIT V559D/V654A: Mast/stem cell growth factor receptor Kit (KIT, Homo sapiens, UniProt P10721, V559D/V654A)
KIT: Mast/stem cell growth factor receptor Kit (KIT, Homo sapiens, UniProt P10721)
KIT V559D: Mast/stem cell growth factor receptor Kit (KIT, Homo sapiens, UniProt P10721, V559D)

| SMILES | target | test | setting | scale | remaining binding |
| --- | --- | --- | --- | --- | --- |
| C=CC(=O)N1CCCC(n2c(=O)c3ncccc3n(Cc3ccc(Oc4ccccc4)cc3)c2=O)C1 (stereo not drawn) | Mast/stem cell growth factor receptor Kit (KIT, Homo sapiens, UniProt P10721, T670I/V559D) | cell-free assay, competition with immobilised ligand | 1 µM | – | 93% |
| COc1c(Cl)cccc1Nc1c(-c2ccncc2C#C[C@@]2(C)CCCN2C(=O)/C=C/CN(C)C)[nH]c2c1C(=O)NCC2 | KIT V559D/V654A | binding, competition with immobilised ligand | 3 µM | – | 85% |
| Nc1ncc2c(n1)-c1c([nH]c3ccc(C4=CCOCC4)cc13)CCC2 | Mast/stem cell growth factor receptor Kit (KIT, Homo sapiens, UniProt P10721, D816H) | binding, competition with immobilised ligand | 1 µM | – | 84% |
| CNC(=O)C1CCN(c2cc(C)c(F)cc2NC(=O)c2ccc(-c3cc(O)ccc3C)c(C)c2)CC1 | KIT | binding, competition with immobilised ligand | 1 µM | – | 90% |
| CCN1CCN(Cc2ccc(NC(=O)c3ccc(C)c(NC(=O)c4cncc(-c5cccs5)c4)c3)cc2C(F)(F)F)CC1 | KIT | binding, competition with immobilised ligand | 1 µM | – | 0% |
| C=CC(=O)N1CCc2ccc(-n3c(=O)ccc4cnc5ccc(-c6cnn(C)c6)cc5c43)cc21 | Mast/stem cell growth factor receptor Kit (KIT, Homo sapiens, UniProt P10721, A829P) | KINOMEscan | 1 µM | relative to: DMSO control | 94% |
| CN1CCN(Cc2ccc(NC(=O)c3cccc(C#Cc4cnc(N)c5ncccc45)c3)cc2C(F)(F)F)CC1 | KIT | cell-free assay, competition with immobilised ligand | 50 nM | – | 0.5% |
| CNC1C[S+]2CC[S+]3CC[S+](C1)[Ru-4]321([N]=C=S)[n]2c3ccc(OC)cc3c3c4c(c5cc(F)c[n+]1c5c32)C(=O)NC4=O (stereo not drawn) | KIT V559D | KinomeScan | 0.1 µM | relative to: untreated | 53% |
| Cc1cnc2nc1Nc1cccc(c1)COC/C=C/COCc1cc(ccc1OCCN1CCOCC1)N2 | KIT V559D/V654A | binding | 0.1 µM | – | 63% |
| CCN1CCN(Cc2ccc(C(=O)Nc3ccc(C)c(NCc4cnc5[nH]ccc5c4OC)c3)cc2C(F)(F)F)CC1 | Mast/stem cell growth factor receptor Kit (KIT, Homo sapiens, UniProt P10721, L576P) | binding, competition with immobilised ligand | 1 µM | – | 0.8% |
| CC(C)=CC1OC(C)(C)C2C=C3C(=O)C(Cl)=CC(O)C3C3C(O)C4OC4C(=O)C132 (stereo not drawn) | KIT V559D | cell-free assay, competition with immobilised ligand | 10 µM | – | 100% |
| Cc1ccc(-c2c(/C=C(\C#N)C(=O)NC(C)C)n(CCCO)c3ncnc(N)c23)cc1 | KIT V559D/V654A | cell-free assay, competition with immobilised ligand | 1 µM | – | 96% |
